Assay results gathered from unrelated publications.
Lines come from different studies, so protocols differ. “And” joins repeats or separate records; there may be more than shown. Numbers after ± are the reported error. Values after ≈ are worked out from the molar mass of the structure shown.

Compound | organism | assay | test system | setting | how to read | measurement | value
CCCCCCCCCCCCCC(=O)N[C@H]1C(=O)N[C@@H](CN)C(=O)N[C@@H](CO)C(=O)N[C@@H](Cc2ccc(O)cc2)C(=O)O[C@H]1C | Staphylococcus aureus |  | SH1000 | with: sphingomyelin, molar ratio 2 |  | MIC | 2 µg/mL
CC[C@H](C)[C@H](NC(=O)[C@H](C)NC(=O)CNC(=O)[C@H](C)NC(=O)[C@H](CCCCN)NC(=O)[C@H](CO)NC(=O)[C@H](C)NC(=O)[C@H](CCSC)NC(=O)CN)C(=O)N[C@@H](C)C(=O)NCC(=O)N[C@@H](CCCCN)C(=O)N[C@H](C(=O)N[C@@H](C)C(=O)N[C@@H](CCCCN)C(=O)N[C@H](C(=O)N[C@@H](C)C(=O)N[C@@H](CC(C)C)C(=O)N[C@@H](CCCCN)C(=O)N[C@@H](C)C(=O)N[C@@H](CC(C)C)C(N)=O)C(C)C)[C@@H](C)CC | Escherichia coli |  | CFT073 nalidixic acid-resistant | 18 h, 37 °C, minimal salts medium |  | MIC | 2.5 µg/mL
CC[C@H](C)[C@H](NC(=O)[C@H](CCCCN)NC(=O)[C@H](CCCCN)NC(=O)[C@H](Cc1ccccc1)NC(=O)[C@H](Cc1ccccc1)NC(=O)[C@H](CCCCN)NC(=O)[C@H](CCCCN)NC(=O)[C@H](Cc1ccccc1)NC(=O)[C@H](CCCNC(=N)N)NC(=O)[C@@H](N)CCCCN)C(=O)N[C@@H](CCCCN)C(=O)N[C@@H](CCCCN)C(=O)N[C@@H](CO)C(=O)N[C@H](C(=O)N[C@@H](CCCCN)C(=O)N[C@@H](CCCCN)C(=O)N[C@@H](CCCNC(=N)N)C(=O)N[C@H](C(=O)N[C@@H](CCCCN)C(=O)N[C@@H](CCCCN)C(=O)N[C@@H](CC(C)C)C(=O)N[C@@H](Cc1ccccc1)C(=O)N[C@@H](CCCCN)C(=O)N[C@@H](CCCCN)C(=O)N1CCC[C@H]1C(=O)N[C@@H](CCCNC(=N)N)C(=O)N[C@H](C(=O)N[C@H](C(=O)N1CCC[C@H]1C(=O)N[C@H](C(=O)N[C@@H](CO)C(=O)N[C@H](C(=O)N1CCC[C@H]1C(=O)N[C@@H](Cc1ccccc1)C(=O)O)[C@@H](C)CC)[C@@H](C)CC)[C@@H](C)CC)C(C)C)C(C)C)C(C)C | Helicobacter pylori |  | SS1 |  |  | MBC | 16 µg/mL (≈ 3.79 µM)
CCCSC(SCCC)c1ccc(OCCNS(=O)(=O)c2ccc(F)cc2)c(OC)c1 | Tobacco mosaic virus | inactivation activity | plant in vivo |  |  | EC50 | 79 ± 1.3 µg/mL
C#CCN1C(=O)C(CC#C)(C(=O)OCC)Oc2ccccc21 (stereo not drawn) | Sclerotinia sclerotiorum | microbial growth |  | 50 µg/mL |  | inhibition | < 25%
[O-][N+]1=C(Cc2ccccc2)C2=NCCCN2c2ccccc21 | Parabacteroides distasonis and Bacteroides spp. | bacterial growth |  |  |  | MIC90 | 4 µg/mL (≈ 13.7 µM)
COc1cc(C(SC(C)C)SC(C)C)ccc1OCCNS(=O)(=O)c1cccc(Br)c1 | Tobacco mosaic virus | protective activity | plant in vivo |  |  | EC50 | 200.7 ± 1.9 µg/mL
COc1ccc(C2=[N+]([O-])c3ccccc3N3CCN=C23)cc1 | Parabacteroides distasonis and Bacteroides spp. | bacterial growth |  |  |  | MIC90 | ≤ 0.06 µg/mL
CCOC(=O)C1(Cc2ccccc2)Oc2ccccc2N(Cc2ccccc2)C1=O (stereo not drawn) | Echinochloa crus-galli | fresh weight, greenhouse postemergence |  | postemergence, 150 g ai/ha, 21 days |  | inhibition | 42.5 ± 0.87%
CCn1cnc2c(Oc3ccc(/C=C/C(=O)c4ccc(NS(=O)(=O)c5ccccc5C)cc4)cc3)ncnc21 | tobacco mosaic virus | protective activity | in vivo plant |  |  | EC50 | 447.2 ± 2.1 µg/mL
CN(C(=O)c1ccn2ncc(-c3ccc(C(N)=O)cc3)c2c1)c1ccc(C#N)cn1 | Cryptosporidium parvum |  | UGA1 Nluc, IFN-gamma knockout C57BL/6 mice, faeces | oral, 10 mg/kg daily, 240 h post infection, treatment days 3-9 | higher means more parasites | faecal Nluc luminescence | 8 a.u. and 67 a.u. and 35 a.u. and 13 a.u. and 17 a.u.
CC[C@H](C)[C@@H]1NC(=O)[C@@H](CCCNC(=N)N)NC(=O)[C@@H](NC(=O)[C@@H](CC(C)C)NC(=O)[C@H](C)NC(=O)[C@H](C)NC(=O)[C@@H]2CCCN2C(=O)[C@@H](CC(C)C)NC(=O)[C@@H](NC(=O)[C@@H](CCCNC(=N)N)NC(=O)[C@@H](CC(C)C)NC(=O)[C@@H](CC(C)C)NC(=O)[C@@H](NC(=O)[C@@H](CCCNC(=N)N)NC(=O)[C@@H](CC(C)C)NC(=O)[C@@H](NC(=O)[C@@H](NC(=O)CNC(=O)[C@@H](CC(C)C)NC(=O)[C@@H](N)Cc2ccccc2)[C@@H](C)O)C(C)C)C(C)C)C(C)C)CSSC[C@@H](C(=O)O)NC(=O)[C@@H](CCCNC(=N)N)NC(=O)[C@@H](CCCNC(=N)N)NC(=O)[C@H](Cc2ccccc2)NC1=O | Streptococcus pyogenes |  | Galleria mellonella larvae | 32 mg/kg, titanium implant biofilm infection |  | survival rate | 90%
COC(=O)C1=CO[C@@H](C)[C@@H]2Cn3ccc4c5ccccc5nc-4c3C[C@H]12 | Plasmodium falciparum |  | C2B, atovaquone-resistant | 96 h | reference: C2B over 3D7 | resistance index | 0.8
COc1ccc(C2=[N+]([O-])c3ccccc3N3CCCN=C23)cc1 | Prevotella spp. | bacterial growth |  |  |  | MIC50 | 0.5 µg/mL (≈ 1.63 µM)
O=CCNCCOn1c(=O)n(OCCNCCO)c(=O)n(OCCNCCOn2c(=O)n(OCCNCCO)c(=O)n(OCCNCCO)c2=O)c1=O | Bacillus cereus | broth microdilution |  |  |  | MLC | 2 µg/mL (≈ 2.6 µM)
O=C(NNc1ccc(Cl)cc1)c1nnc(CC23CC4CC(CC(C4)C2)C3)o1 | Sclerotinia sclerotiorum | microbial growth |  | 50 µg/mL |  | inhibition | 100%
CCOC(=O)C1(Cc2ccccc2)Oc2cc(C)ccc2N(Cc2ccccc2)C1=O (stereo not drawn) | Echinochloa crus-galli | fresh weight, greenhouse postemergence |  | postemergence, 150 g ai/ha, 21 days |  | inhibition | 55.9 ± 2.32%
C[C@H](NC(=O)Cc1cc(F)cc(F)c1)C(=O)N[C@@H]1C(=O)N(C)c2ccccc2-c2ccccc21 | dengue virus type 2 | viral replication, Renilla luciferase reporter virus | Raji DC-SIGN | 48 h |  | EC50 | 30.5 nM

Compound | organism | assay | test system | setting | how to read | measurement | value
[O-][N+]1=C(c2ccsc2)C2=NCCCN2c2ccccc21 | Parabacteroides distasonis and Bacteroides spp. | bacterial growth |  |  |  | MIC50 | 0.25 µg/mL (≈ 0.882 µM)
C=CCN1C(=O)C(CC=C)(C(=O)OCC)Oc2cc(F)ccc21 (stereo not drawn) | Echinochloa crus-galli |  | greenhouse | postemergence, 150 g ai/ha, 21 days |  | fresh weight inhibition | 48.3 ± 2.46%
FC(F)(F)c1cccc(CNc2nc(NC3CCN(Cc4ccccc4)CC3)c3nc[nH]c3n2)c1 | Cryptococcus neoformans | RNA-seq, measured: CNAG_03262 |  | 48 µg/mL, 3 h | reference: untreated | mRNA fold change | 1.15
[O-][N+]1=C(c2ccc(Cl)cc2)C2=NCCCN2c2ccccc21 | Parabacteroides distasonis and Bacteroides spp. | bacterial growth |  |  |  | MIC90 | 1 µg/mL (≈ 3.21 µM)
CCSC(SCC)c1ccc(OCCNS(=O)(=O)c2ccc(C)cc2)c(OC)c1 | Tobacco mosaic virus | protective activity | plant in vivo |  |  | EC50 | 177 ± 2.3 µg/mL
CCOC(=O)C1(Cc2ccc(C#N)cc2)Oc2cc(F)ccc2N(Cc2ccc(C#N)cc2)C1=O (stereo not drawn) | Echinochloa crus-galli | fresh weight, greenhouse postemergence |  | postemergence, 150 g ai/ha, 21 days |  | inhibition | 50.3 ± 1.88%
Cc1cc(C(=O)Nc2nc3cccc(C)c3n2[C@H]2CCCCN(C(=O)/C=C/CN(C)C)C2)ccn1 | Trypanosoma brucei | propidium iodide flow cytometry, measured: G2/M phase | bloodstream CLK1 over-expression uninduced | concentration not given |  | cell cycle distribution | 45.7% and 45.8% and 41.9%
CCN(CC)CCO.O=C(O)C(Cl)Cl | Eclipta prostrata |  |  | 15 mg/mL, 21 days, pre-emergence, greenhouse |  | herbicidal inhibition | 0%
[O-][N+]1=C(c2ccccc2)C2=NCCN2c2ccccc21 | Parabacteroides distasonis and Bacteroides spp. | bacterial growth |  |  |  | MIC50 | ≤ 0.06 µg/mL
CC[C@H](C)CCCCC(=O)N[C@@H](CCN)C(=O)N[C@H](C(=O)N[C@@H](CCN)C(=O)N[C@H]1CCNC(=O)[C@H]([C@@H](C)O)NC(=O)[C@H](CCN)NC(=O)[C@H](CCN)NC(=O)[C@H](CC(C)C)NC(=O)[C@@H](CC(C)C)NC(=O)[C@H](CCN)NC1=O)[C@@H](C)O | Escherichia coli | daily serial passaging | ATCC 8739 | highest sub-MIC, 11 days | reference: initial MIC | MIC fold change | 1.47
COc1cc(C(SC(C)C)SC(C)C)ccc1OCCNS(=O)(=O)c1ccc(F)cc1 | Tobacco mosaic virus | protective activity | plant in vivo |  |  | EC50 | 312.4 ± 3.1 µg/mL
Cc1ccc(N2CC3CC(C2)N3C)cc1C(=O)NC1(c2ccc3c4c(cccc24)C(=O)N3C)CC1 | Human coronavirus NL63 | viral replication, inhibitor |  |  |  | IC50 | 81.6 nM
Cc1ccc(S(=O)(=O)NCCOc2ccc(C(SC(C)C)SC(C)C)cc2)cc1 | Tobacco mosaic virus | curative activity | plant in vivo |  |  | EC50 | 1481 ± 2.5 µg/mL
CCOC(=O)C1(Cc2ccccc2)Oc2cc(F)ccc2N(Cc2ccccc2)C1=O (stereo not drawn) | Eclipta prostrata |  | greenhouse | postemergence, 150 g ai/ha, 21 days |  | fresh weight inhibition | 65.6 ± 1.77%
CC(C)SC(SC(C)C)c1ccc(OCCNS(=O)(=O)c2cccc(Br)c2)c(Cl)c1 | Tobacco mosaic virus | inactivation activity | plant in vivo |  |  | EC50 | 262.9 ± 1.6 µg/mL
COc1ccc(Cn2c3cc(=O)n(Cc4cccc(Cl)n4)c(C)c3c(=O)n2-c2ccccn2)cc1 | human respiratory syncytial virus |  | recombinant reporter virus | concentration not given, scale 0 to 100, with: cytidine 33.3 µM |  | normalized viral replication | 0
COc1cc(C(SC(C)C)SC(C)C)ccc1OCCNS(=O)(=O)c1ccc(F)c(Cl)c1 | Tobacco mosaic virus | inactivation activity | plant in vivo |  |  | EC50 | 1066 ± 4.3 µg/mL
O[C@]12C=C(c3nccc4c3[nH]c3ccccc34)[C@@H]3CCN(CCCC/C=C\CC1)C[C@@]31C[C@@H]3/C=C\CCCCN3[C@H]12 | Mycobacterium intracellulare | Alamar Blue | ATCC 23068 | 5% calf serum in broth |  | IC50 | 1.64 µg/mL

A few entries again:
Compound | organism | assay | test system | setting | how to read | measurement | value
COc1ccc(Cn2c3cc(=O)n(Cc4cccc(Cl)n4)c(C)c3c(=O)n2-c2ccccn2)cc1 | human respiratory syncytial virus |  | recombinant reporter virus | concentration not given, scale 0 to 100, with: cytidine 33.3 µM |  | normalized viral replication | 0
C[C@H](NC(=O)Cc1cc(F)cc(F)c1)C(=O)N[C@@H]1C(=O)N(C)c2ccccc2-c2ccccc21 | dengue virus type 2 | viral replication, Renilla luciferase reporter virus | Raji DC-SIGN | 48 h |  | EC50 | 30.5 nM
